Results pooled from the literature.
Each line is one published result; not all experiments were run side by side. ± gives the spread as reported.
Cell line: HeLa

| Structure (SMILES) | test | conditions | IC50 |
| --- | --- | --- | --- |
| CN[C@H](CC(C)C)C(=O)N[C@H]1C(=O)N[C@@H](CC(N)=O)C(=O)N[C@H]2C(=O)N[C@H]3C(=O)N[C@H](C(=O)N[C@H](C(=O)O)c4cc(O)cc(O)c4-c4cc3ccc4O)[C@H](O)c3ccc(c(Cl)c3)Oc3cc2cc(c3O[C@@H]2O[C@H](CO)[C@@H](O)[C@H](O)[C@H]2O[C@H]2C[C@](C)(N)[C@H](O)[C@H](C)O2)Oc2ccc(cc2Cl)[C@H]1O | cell growth or viability, MTT | 48 h | > 500 µM |
| COc1cccc(CNC[C@](O)(COCc2ccccc2)[C@@H]2CC[C@@H](C)C[C@H]2OCc2ccccc2)c1 | cell growth or viability, MTT | 72 h | 1.6 µM |
| CO[C@@H]1[C@@H](O[C@@H]2O[C@H](C)[C@@H](O[C@H]3C[C@@](C)(O)[C@@H](OC(=O)CN4CCOCC4)[C@H](C)O3)[C@H](N(C)C)[C@H]2O)[C@@H](CC=O)C[C@@H](C)[C@@H](O[C@H]2CC[C@H](N(C)C)[C@@H](C)O2)/C=C/C=C/C[C@@H](C)OC(=O)C[C@H]1O | cell growth or viability, CCK-8 | 72 h | 9.71 µM |
| CCCCCCCC[P+](c1cc(C)cc(C)c1)(c1cc(C)cc(C)c1)c1cc(C)cc(C)c1 | cell growth or viability, resazurin | 72 h | 0.32 µM |
| CCCCN(CCCC)CC(O)COc1c2ccoc2c(OC)c2oc(CC)cc(=O)c12 (stereo not drawn) | cell growth or viability, MTT | 72 h | 22.4 µM |
| CCCN1CCN(CC(=O)N2CCN(c3cc(C)nc4ncnn34)CC2)CC1 | cell growth or viability, MTT |  | 45.7 µM |
| O=C(Cc1ccc2ccccc2c1)N[C@H](Cc1ccccc1)C(=O)N[C@H](Cc1ccc(OP(=O)(O)O)cc1)C(=O)N[C@H](Cc1ccccc1)C(=O)N[C@H](Cc1ccc(OP(=O)(O)O)cc1)C(=O)O | cell growth or viability, MTT |  | 217 µg/mL |
| CC(C)C[C@H](NC(=O)CNC(=O)c1cc(Cl)ccc1Cl)B(O)O | cell growth or viability, resazurin | 48 h | 0.81 µM |
| Nc1ccn(CC(=O)N[C@@H](Cc2ccccc2)C(=O)N[C@@H](Cc2ccccc2)C(=O)N[C@@H](Cc2ccc(O)cc2)C(=O)O)c(=O)n1 |  |  | > 500 µM |
| C[S+](C)([O-])[Pt-2]([Cl])([Cl])[N+](=Cc1ccc[nH]1)Cc1ccccc1 | cell growth or viability, MTT | 24 h | 84.9 µg/mL |
| N=C(N)NCCC[C@@H]1NC(=O)[C@H](CCCCN)NC(=O)[C@@H](Cc2ccc(O)cc2)NC(=O)[C@H](CC(=O)O)NC(=O)CNC1=O | cell growth or viability, MTT | 48 h | > 100 µM |
| COc1cc(CN2CCN(c3ccc(C(F)(F)F)cc3)CC2)c2cc3[n+](cc2c1O)CCc1cc2c(cc1-3)OCO2 | cell growth or viability, SRB | 48 h | 4.25 µg/mL |
| CCCCC[P+](c1ccccc1)(c1ccccc1)c1ccccc1 | cell growth or viability, resazurin | 72 h | 1.64 µM |
| CC(=O)OC[C@H]1O[C@@H](NC(=O)NC(=O)/C=C/c2ccc(-c3ccccc3)cc2)[C@H](OC(C)=O)[C@@H](OC(C)=O)[C@@H]1OC(C)=O | cell growth or viability | 96 h | 100 µM |
| O=[N+]([O-])c1ccc(C=[N+]2N=C(Nc3ccccc3)[S][Pd-]2([Cl])[Cl])s1 | cell growth or viability |  | 21 µM |
| O=c1ccn([C@@H]2O[C@H](CSSC[C@H]3O[C@@H](n4ccc(=O)[nH]c4=O)[C@H](O)[C@@H](F)[C@@H]3O)[C@@H](O)[C@H](F)[C@H]2O)c(=O)[nH]1 | cell growth or viability |  | 320 µM |
| C[C@@H]1CC[C@@H]([C@@](O)(CNCc2ccccc2F)COCc2ccccc2)[C@H](OCc2ccccc2)C1 | cell growth or viability, MTT | 72 h | 2.6 µM |
| C=C1C(=O)O[C@@H]2/C=C(\C)CC/C=C(/C(=O)OC)[C@H](OC(C)=O)[C@@H](OC(=O)/C(C)=C\C)[C@@H]12 | cell growth or viability | 24 h | 9.38 µM |
| CC1=CC(C(F)(F)F)=[O+][Pt-2]([NH3+])([NH3+])[O]1.CC1=CC(C(F)(F)F)=[O+][Pt-2]([NH3+])([NH3+])[O]1.O=S(=O)([O-])[O-] (stereo not drawn) | cell growth or viability, MTT |  | 2.9 µM |
| F[P-](F)(F)(F)(F)F.O=C(CCC(=O)c1ccccc1)NCCN(CC(=O)Nc1ccc(C#CCN(Cc2ccccn2)Cc2ccccn2)cc1)C(=O)CCc1cn(C[c-]2cccc2)nn1.[C-]#[O+].[C-]#[O+].[C-]#[O+].[Fe+2].[Re+].c1cc[cH-]c1 | cell growth or viability, resazurin | 48 h | 10.2 µM |
| Nc1ccc(CNC(=O)Cc2ccc(-c3ccc(OCCN4CCOCC4)cc3)cn2)cc1 | cell growth or viability, CCK-8 | 48 h | 0.63 µM |
| O=[N+]([O-])c1ccc(NC2=N[N+](=Cc3cccs3)[Pd-]([Cl])([Cl])[S]2)cc1 | cell growth or viability |  | 385 µM |
| COc1ccccc1CNC[C@@](O)(COCc1ccccc1)[C@@H]1CC[C@@H](C)C[C@H]1OCc1ccccc1 | cell growth or viability, MTT | 72 h | 2.6 µM |
| CC(=O)[C@@H]1CCCN1C(=O)[C@@H]1CCCN1C(=O)[C@H](Cc1ccccc1)N(C)C(=O)OC(C)(C)C | cell growth or viability, SRB |  | 9 µM |
| Cc1cc(/C=C/C#N)cc(C)c1Oc1cc(Nc2ccc(C#N)cn2)nc2cnccc12 |  | 48 h | 66.9 ± 0.6 µM |
| C[C@@H]1CC[C@@H]([C@@](O)(CNCc2cccc(F)c2)COCc2ccccc2)[C@H](OCc2ccccc2)C1 | cell growth or viability, MTT | 72 h | 2.3 µM |

| Structure (SMILES) | test | conditions | IC50 |
| --- | --- | --- | --- |
| CC(=O)OC[C@H]1O[C@@H](NC(=O)/C=C/c2ccc(-c3ccccc3)cc2)[C@H](OC(C)=O)[C@@H](OC(C)=O)[C@@H]1OC(C)=O | cell growth or viability | 96 h | ≥ 250 µM |
| CC(C(=O)NCc1ccccc1)c1ccc(-c2ccc(OCCN3CCOCC3)cc2)cn1 (stereo not drawn) | cell growth or viability, CCK-8 | 48 h | 0.95 µM |
| CC(C)(C)c1cc2c(O)c(c1)Cc1cc(C(C)(C)C)cc(c1OCC(=O)NCc1ccncc1)Cc1cc(C(C)(C)C)cc(c1O)Cc1cc(C(C)(C)C)cc(c1OCC(=O)NCc1ccncc1)COC2 | cell growth or viability, MTT | 72 h | 3.9 µM |
| CC(C)c1ccc(/C=C/C(=O)NC(=O)N[C@@H]2O[C@H](CO)[C@@H](O)[C@H](O)[C@H]2O)cc1 | cell growth or viability | 96 h | 45 µM |
| O=C1/C(=C(\O)CCc2ccccc2)C(=O)[C@@]2(C(=O)OC3CCCCC3)CS[C@H](c3ccccc3)N12 | cell growth or viability, resazurin |  | 7.81 µg/mL |
| CC(C)(C(=O)O)C1(O)CCCCC1 | cell growth or viability | 72 h | 128 µM |
| COc1ccc([C@@H]2COc3cc(O)ccc3C2)c(OC)c1 | cell growth or viability, MTT | 72 h | 40.1 µM |
| CCCCCCCCCCCCOc1c(O)cc(C(=O)O[C@@H]2Cc3c(O)cc(O)cc3O[C@@H]2c2cc(O)c(O)c(O)c2)cc1O | cell growth or viability, CCK-8 | 24 h | 81.3 µM |
| N#Cc1c(-c2ccc(Cl)cc2)cc(-c2cccc3ccccc23)n2c(Cc3ccccc3)nnc12 | cell growth or viability, MTT | 72 h | 1.04 µM |
| S=c1n(-c2ccccc2)c2c3ccccc3nc3[n+]2[n]1[Ir-3]12([S]3)([c]3cccc4ccc5ccc[n+]1c5c34)[c]1cccc3ccc4ccc[n+]2c4c13 | cell viability, MTT | irradiation 450 nm, 15.5 mW/cm^2, 15 min | 0.0015 ± 0.0003 µM |
| COC(=O)[C@@H](NC(=O)[C@@H](NC(=O)[C@@H](NC(=O)OC(C)(C)C)C(C)C)C(C)C)C(C)C | cell growth or viability, SRB |  | 14 µM |
| [Cl][Pt-]1([Cl])[S]C(Nc2ccccc2)=N[N+]1=Cc1cccs1 | cell growth or viability |  | 37 µM |
| C#CCN(CC(=O)O[C@H]1[C@H](C)O[C@@H](O[C@H]2[C@H](N(C)C)[C@@H](O)[C@H](O[C@H]3[C@@H](CC=O)C[C@@H](C)[C@@H](O[C@H]4CC[C@H](N(C)C)[C@@H](C)O4)/C=C/C=C/C[C@@H](C)OC(=O)C[C@@H](O)[C@@H]3OC)O[C@@H]2C)C[C@@]1(C)O)C(=O)c1ccc(C(C)(C)C)cc1 | cell growth or viability, CCK-8 | 72 h | 1.76 µM |
| O=C(Cc1ccc(-c2ccc(OCCN3CCOCC3)cc2)cn1)NCC1CCCCC1 | cell growth or viability, CCK-8 | 48 h | > 4 µM |
| COc1cc(OC)c(C(C)=O)c(OC)c1 | cell growth or viability, MTT | 48 h | 26.3 µM |
| Cc1cc(C#N)cc(C)c1Oc1cc(Nc2ccc(C#N)cc2)nc2cnccc12 |  | 48 h | > 128 µM |
| CCCCc1ccc(C(=O)O[C@@H]2CC(=O)O[C@H](C)C/C=C/C=C/[C@H](O[C@H]3CC[C@H](N(C)C)[C@@H](C)O3)[C@H](C)C[C@H](CC=O)[C@H](O[C@@H]3O[C@H](C)[C@@H](O[C@H]4C[C@@](C)(O)[C@@H](O)[C@H](C)O4)[C@H](N(C)C)[C@H]3O)[C@H]2OC)cc1 | cell growth or viability, CCK-8 | 72 h | 1 µM |
| COc1cccc2c(NCc3ccccc3)nc(NCc3cccs3)nc12 | ODD-Luc degradation | p97-independent substrate | 4 ± 1 µM |
| CC(=O)Oc1cc2c(cc1C(C)C)C1(CC3C(C)(CN4C(=O)c5c(Cl)c(Cl)c(Cl)c(Cl)c5C4=O)CCCC23C)C23c4c5c6c7c8c9c(c%10c%11c2c2c4c4c%12c5c5c6c6c8c8c%13c9c9c%10c%10c%11c%11c2c2c4c4c%12c%12c5c5c6c8c6c8c%13c9c9c%10c%10c%11c2c2c4c4c%12c5c6c5c8c9c%10c2c45)C713 (stereo not drawn) | cell growth or viability, MTT | 48 h | > 30 µM |
| CCC1=C(CC)C2=[N+]3C1=Cc1c(CC)c(CC)c4[n]1[Ir-3]31([Cl])([C]#[O+])[n]3c(c(CC)c(CC)c3=CC3=[N+]1C(=C4)C(CC)=C3CC)=C2 | cell growth or viability, MTT | 72 h | > 50 µM |
| COc1cc2c(cc1OCCCOc1no[n+]([O-])c1S(=O)(=O)c1ccccc1)CCC1C2CCC2(C)C(O)CCC12 (stereo not drawn) | cell growth or viability, MTT | 48 h | 2.65 µM |
| S=c1n(-c2ccccc2)c2c3ccccc3nc3[n+]2[n]1[Ir-3]12([S]3)([c]3ccccc3-c3sc4ccccc4[n+]31)[c]1ccccc1-c1sc3ccccc3[n+]12 | cell viability, MTT | dark | > 50 µM |
| COc1cc(/C=N/NC(=O)c2cc3cc(Nc4nccc(-c5cccnc5)n4)ccc3[nH]2)cc(OC)c1 | cell growth or viability, MTT | 48 h | 7.46 µM |
| O=C(Cc1ccc(-c2ccc(OCCN3CCOCC3)cc2)cn1)NCc1cccnc1 | cell growth or viability, CCK-8 | 48 h | > 4 µM |
| CN(C)CCO/N=C1/C=C2CCC3C(CC[C@]4(C)/C(=C/c5ccccn5)CCC34)[C@@]2(C)CC1 (stereo partly drawn) | cell growth or viability, MTT | 72 h | > 100 µM |

A few entries again:
| Structure (SMILES) | test | conditions | IC50 |
| --- | --- | --- | --- |
| CC(C)(C)c1cc2c(O)c(c1)Cc1cc(C(C)(C)C)cc(c1OCC(=O)NCc1ccncc1)Cc1cc(C(C)(C)C)cc(c1O)Cc1cc(C(C)(C)C)cc(c1OCC(=O)NCc1ccncc1)COC2 | cell growth or viability, MTT | 72 h | 3.9 µM |
| CC(C)c1ccc(/C=C/C(=O)NC(=O)N[C@@H]2O[C@H](CO)[C@@H](O)[C@H](O)[C@H]2O)cc1 | cell growth or viability | 96 h | 45 µM |
| O=C1/C(=C(\O)CCc2ccccc2)C(=O)[C@@]2(C(=O)OC3CCCCC3)CS[C@H](c3ccccc3)N12 | cell growth or viability, resazurin |  | 7.81 µg/mL |
| CC(C)(C(=O)O)C1(O)CCCCC1 | cell growth or viability | 72 h | 128 µM |
| COc1ccc([C@@H]2COc3cc(O)ccc3C2)c(OC)c1 | cell growth or viability, MTT | 72 h | 40.1 µM |
| CCCCCCCCCCCCOc1c(O)cc(C(=O)O[C@@H]2Cc3c(O)cc(O)cc3O[C@@H]2c2cc(O)c(O)c(O)c2)cc1O | cell growth or viability, CCK-8 | 24 h | 81.3 µM |
| N#Cc1c(-c2ccc(Cl)cc2)cc(-c2cccc3ccccc23)n2c(Cc3ccccc3)nnc12 | cell growth or viability, MTT | 72 h | 1.04 µM |
| S=c1n(-c2ccccc2)c2c3ccccc3nc3[n+]2[n]1[Ir-3]12([S]3)([c]3cccc4ccc5ccc[n+]1c5c34)[c]1cccc3ccc4ccc[n+]2c4c13 | cell viability, MTT | irradiation 450 nm, 15.5 mW/cm^2, 15 min | 0.0015 ± 0.0003 µM |
